{"data": "Published values gathered from unrelated publications", "note": "Compare with care: the assays were run in different laboratories. Values joined by “and” are separate records of one study, mostly repeats; a detail may differ. ± gives the spread as reported."}
{"Structure (SMILES)": "CN(C)C(=O)c1cccc(N2Cc3cn(Cc4cc(F)cc(F)c4)nc3C2)c1", "test": "metabolic stability", "system": "human, liver microsomes", "measurement": "half-life", "result": "1.17 h"}
{"Structure (SMILES)": "[2H]C([2H])([18F])Oc1cc(C(=O)OCC2CCN(CCCC)CC2)ccc1N", "test": "PET", "system": "rhesus monkey, striatum", "measurement": "peak uptake", "result": "4 to 7 SUV"}
{"Structure (SMILES)": "C/C(N)=N/C(=N\\S(=O)(=O)c1ccc(C(F)(F)F)cc1)N1C[C@H](c2ccccc2)C(c2ccc(Cl)cc2)=N1", "system": "male C57BL/6 mouse, brain", "conditions": "oral, 10 mg/kg", "measurement": "half-life", "result": "8.4 h"}
{"Structure (SMILES)": "C=C(NC(=O)c1csc(-c2nc3c(cc2O)-c2nc(cs2)C(=O)NC(C(C)O)C(=O)NC(=C(C)OC)c2nc(cs2)C(=O)NC2c4nc(cs4)C(=O)NC(COC(=O)c4c5c6c(cccc6n4O)COC(=O)C(OC4CC(C)(O)C(N(C)C)C(C)O4)C2OC5)c2nc-3cs2)n1)C(N)=O (stereo not drawn)", "system": "Sprague-Dawley rat, female, plasma", "conditions": "intravenous infusion, 6 mg/kg, multiple doses, day 1", "measurement": "MRT(0-last)", "result": "1.25 h"}
{"Structure (SMILES)": "CN(O)C(=O)CCC(=O)NCCCN(CCCCN(CCCNC(=O)CCC(=O)N(C)O)C(=O)CCC(=O)N(C)O)C(=O)CCC(=O)N(C)O.[89Zr]", "test": "radio-TLC", "system": "aqueous buffer", "conditions": "1 d, pH 7.2, 37 °C, 89Zr-labelled complex, added: NiCl2 10-fold excess", "measurement": "intact complex", "result": "99 ± 0.5%"}
{"Structure (SMILES)": "O=C(O)CCCCC1(N(CC(=O)O)CC(=O)O)CN(CC(=O)O)CCN(CC(=O)O)C1", "test": "pH-potentiometry, measured: logK4H", "system": "0.15 M NaClO4", "conditions": "25 °C", "measurement": "protonation constant (log)", "result": 3.91}
{"Structure (SMILES)": "CN1CCC[C@]1(C)/C=C/S(=O)(=O)NC(=O)Nc1c2c(cc3c1CCC3)CC=C2", "system": "human, plasma", "conditions": "oral, 50 mg twice daily of parent drug, day 14, metabolite of dosed drug", "measurement": "AUC(0-24)", "result": "496 µg·h/mL"}
{"Structure (SMILES)": "O=C(NS(=O)(=O)c1cccs1)c1cc2ccccc2n1Cc1ccc(Br)c2ccccc12", "system": "KM mouse, chronic hyperuricaemia model, serum", "conditions": "dose not given", "measurement": "ALT", "result": "48.6 U/L and 55.6 U/L and 69.8 U/L and 51.4 U/L and 56.6 U/L and 49.2 U/L"}
{"Structure (SMILES)": "[123I]c1ccc2nc(-c3ccc(-n4ccnn4)nc3)cn2c1", "system": "male Wistar rat, muscle", "conditions": "intravenous, 4 MBq, 5 min", "measurement": "tracer uptake", "result": "0.471 %ID/g"}
{"Structure (SMILES)": "N[C@@H](CC(=O)O)C(=O)OC(C(=O)O)c1ccc(Br)cc1[N+](=O)[O-] (mixture of isomers)", "test": "1H NMR, dark", "system": "50 mM sodium phosphate", "conditions": "concentration not given, pH 7.0, room temperature, 12.5% DMSO-d6", "measurement": "hydrolysis half-life, B isomer", "result": "18.5 ± 0.2 h"}
{"Structure (SMILES)": "CCCC[C@H](NC(=O)CNC(=O)CNC(=O)[C@H](CCCCNC(=O)[C@H](CC(=O)O)NC(=O)C(C)c1ccc(CC(C)C)cc1)NC(=O)CN1CCN(CC(=O)O)CCN(CC(=O)O)CCN(CC(=O)O)CC1)C(=O)N[C@H]1CC(=O)NCCCC[C@@H](C(N)=O)NC(=O)[C@H](Cc2c[nH]c3ccccc23)NC(=O)[C@H](CCCNC(=N)N)NC(=O)[C@@H](Cc2ccccc2)NC(=O)[C@H](Cc2c[nH]cn2)NC1=O (stereo partly drawn) [lutetium-177 labelled]", "system": "C57 mice, tumour", "conditions": "intravenous, 0.037 MBq, 0.5 h", "how to read": "relative to: muscle", "measurement": "tumour-to-tissue ratio", "result": 20.5}
{"Structure (SMILES)": "Cc1nc(N)nc2c1C(=O)N[C@@H](c1ccc(F)cc1-c1cccc(O[11CH3])n1)C2", "test": "radioligand, ex vivo biodistribution", "system": "mouse, MDA-MB-231 xenograft, white blood cells", "conditions": "60 min p.i.", "measurement": "SUV", "result": "3.3 ± 0.6"}
{"Structure (SMILES)": "O=S(=O)(NC1=NCCCCC1)c1ccc2sc(NS(=O)(=O)c3ccc4ccccc4c3)nc2c1", "test": "dynamic light scattering", "system": "buffer", "conditions": "20 µM", "measurement": "hydrodynamic radius", "result": "1.86 nm"}
{"Structure (SMILES)": "CC(C(=O)O)n1nc(Cn2cc3cc(OCC[18F])c(Cl)cc3n2)c2ccccc2c1=O (racemic)", "system": "rat, brain", "conditions": "30 min", "measurement": "tracer uptake", "result": "0.03 %ID/g"}
{"Structure (SMILES)": "C=CC(=O)Nc1cc(Nc2nccc(-c3cn(C)c4ccccc34)n2)c(OC)cc1N(C)CCNC", "test": "storage stability", "system": "human plasma", "conditions": "5 h, on ice, low QC level", "measurement": "recovery", "result": "98.8%"}
{"Structure (SMILES)": "CCN(CC)c1ccc2c(c1)O[B-]1(c3ccccc3C#N)OC(=O)C(c3ccccc3)=N[N+]1=C2 (stereo not drawn)", "test": "UV/vis decay", "system": "aqueous buffer", "measurement": "hydrolysis activation energy", "result": "23.2 kcal/mol"}
{"Structure (SMILES)": "CCCCN1C(=O)c2cccc3c(NCCN4CCOCC4)ccc(c23)C1=O", "system": "DMSO", "measurement": "fluorescence quantum yield", "result": 0.01}
{"Structure (SMILES)": "COc1cc2ncnc(Oc3ccc(Nc4nccc5[nH]cc(-c6ccc(F)cc6)c(=O)c45)cc3F)c2cc1OC", "system": "male cynomolgus monkey, plasma", "conditions": "oral, 3 mg/kg", "measurement": "Cmax", "result": "2020 ng/mL"}
{"Structure (SMILES)": "CCCC[C@H]1C(=O)N(C)[C@@H](CCCC)C(=O)N[C@@H](CCCCNC(=S)Nc2ccc(CN3CCN(CC(=O)O)CCN(CC(=O)O)CC3)cc2)C(=O)N[C@H](C(=O)NCC(N)=O)CSCC(=O)N[C@@H](Cc2ccc(O)cc2)C(=O)N(C)[C@@H](C)C(=O)N[C@@H](CC(N)=O)C(=O)N2CCC[C@H]2C(=O)N[C@@H](Cc2cnc[nH]2)C(=O)N[C@@H](CCC(=O)O)C(=O)N2C[C@H](O)C[C@H]2C(=O)N[C@@H](Cc2c[nH]c3ccccc23)C(=O)N[C@@H](CO)C(=O)N[C@@H](Cc2cn(CC(=O)O)c3ccccc23)C(=O)N1C [fluorine-18 labelled]", "test": "PET, measured: PD-L1", "system": "huCD34 mouse A-375 xenograft, tumour periphery beyond 3 mm", "conditions": "pretreatment", "measurement": "SUV", "result": "0.84 ± 0.28 SUV"}
{"Structure (SMILES)": "CN1CCC[C@]1(C)/C=C/S(=O)(=O)NC(=O)Nc1c2c(cc3c1CCC3O)CCC2 (stereo partly drawn)", "system": "human, plasma", "conditions": "oral, 12.5 mg twice daily of parent drug, day 14, metabolite of dosed drug", "measurement": "AUC(0-24)", "result": "213 µg·h/mL"}
{"Structure (SMILES)": "CC[C@H](C)[C@H](NC(=O)[C@@H](NC(=O)[C@H](CCCCN)NC(=O)[C@@H](NC(=O)[C@@H]1CCCN1[C@@H]1CN(C(=O)[C@@H](NC(=O)[C@@H](NC(=O)[C@@H](NC(=O)[C@@H](NC(=O)[C@@H](NC(=O)[C@@H](N)CCCCN)C(C)C)C(C)C)C(C)C)[C@@H](C)CC)[C@@H](C)O)CC[C@H]1NS(=O)(=O)c1ccc(C)cc1)[C@@H](C)O)C(C)C)C(=O)N[C@@H](CC(C)C)C(=O)N[C@@H](Cc1c[nH]cn1)C(N)=O", "test": "CD spectroscopy", "system": "20 mM phosphate buffer", "conditions": "125 µM, 37 °C", "measurement": "beta-sheet content", "result": "32.3%"}
{"Structure (SMILES)": "O=C(Nc1cnccc1-c1ccc([18F])cc1)c1ccnc(NC(=O)C2CC2)c1", "system": "mice, transgenic, GSK-3β, early-stage, bone", "conditions": "intravenous, dose not given, 120 min, added: tariquidar 15 mg/kg i.v. pre-dose", "measurement": "SUV", "result": 0.41}
{"Structure (SMILES)": "Cc1noc(C)c1Cn1cc(N2C(=O)CN(Cc3cccc(O[C@@H]4O[C@H](C(=O)O)[C@@H](O)[C@H](O)[C@H]4O)c3)C2=O)cn1", "system": "Sprague-Dawley rat, male", "conditions": "oral, 10 mg/kg of parent drug, 12 h", "measurement": "plasma concentration", "result": "7 ng/mL"}
{"Structure (SMILES)": "CN1CCC[C@]1(C)/C=C/S(=O)(=O)NC(=O)Nc1c2c(cc3c1CC(O)C3)CCC2 (stereo partly drawn)", "system": "human, plasma", "conditions": "oral, 100 mg twice daily of parent drug, day 1, metabolite of dosed drug", "measurement": "AUC(0-24)", "result": "160 µg·h/mL"}
{"Structure (SMILES)": "O=c1c2ccccc2[se]n1CCCCCCn1[se]c2ccccc2c1=O", "test": "shake-flask, RP-HPLC", "system": "methanol", "conditions": "24 h, 25 °C", "measurement": "solubility", "result": "1410 ± 130 µg/mL"}
{"Structure (SMILES)": "CC(C)(O)c1ncc([S@](N)(=O)=NC(=O)Nc2c3c(cc4c2CCC4)CCC3)s1", "system": "healthy human", "conditions": "oral, 100 mg single dose, capsule formulation", "measurement": "gastrointestinal adverse events", "result": "50%"}
{"Structure (SMILES)": "CCc1cnc(NC(=O)c2cc(S(=O)(=O)N3CCOCC3)ccc2N(C)C2CCCC2)s1", "system": "mouse, serum", "conditions": "10 mg/kg, 3 doses", "measurement": "Phosphorus", "result": "9 mg/dL"}
{"note": "Some of these lines once more:"}
{"Structure (SMILES)": "C=CC(=O)Nc1cc(Nc2nccc(-c3cn(C)c4ccccc34)n2)c(OC)cc1N(C)CCNC", "test": "storage stability", "system": "human plasma", "conditions": "5 h, on ice, low QC level", "measurement": "recovery", "result": "98.8%"}
{"Structure (SMILES)": "CCN(CC)c1ccc2c(c1)O[B-]1(c3ccccc3C#N)OC(=O)C(c3ccccc3)=N[N+]1=C2 (stereo not drawn)", "test": "UV/vis decay", "system": "aqueous buffer", "measurement": "hydrolysis activation energy", "result": "23.2 kcal/mol"}
{"Structure (SMILES)": "CCCCN1C(=O)c2cccc3c(NCCN4CCOCC4)ccc(c23)C1=O", "system": "DMSO", "measurement": "fluorescence quantum yield", "result": 0.01}
{"Structure (SMILES)": "COc1cc2ncnc(Oc3ccc(Nc4nccc5[nH]cc(-c6ccc(F)cc6)c(=O)c45)cc3F)c2cc1OC", "system": "male cynomolgus monkey, plasma", "conditions": "oral, 3 mg/kg", "measurement": "Cmax", "result": "2020 ng/mL"}
